# Assay results from different studies.
# Each line is one published result; not all experiments were run side by side.
SMILES,target or system,test,system,setting,scale,endpoint,value
OC(CCN1CCCCC1)(c1ccccc1)C1CC2C=CC1C2 (stereo not shown),,resting-state EEG,healthy elderly humans,"oral, 4 mg, eyes open, LS mean",,"power, delta EEG, O2-Pz",8.6 µV²
CC(=O)[C@]1(O)Cc2c(O)c3c(c(O)c2[C@@H](O[C@H]2C[C@H](N)[C@H](O)[C@H](C)O2)C1)C(=O)c1ccccc1C3=O,Toxoplasma gondii,"tachyzoite growth, luciferase","ME49-Fluc, type II",,,EC50,0.67 µM
C[C@H]1C[C@H]2CSC(N)=N[C@@]2(c2nc(NC(=O)c3ccc(OC(F)F)cn3)cs2)CO1,,refers to: Aβx-40,"healthy adults, plasma","125 mg once daily, day 10",baseline: placebo,percent change from baseline,-70.8%
Oc1ccc2c(c1)OC[C@]1(O)Cc3cc(O)c(O)cc3[C@H]21,Toxoplasma gondii,parasite growth,"HFF, bradyzoite, alkaline-induced",,,EC50,26.1 µM
N#Cc1ccc2c(-c3ccncc3)c(-c3ccc(F)cc3)nn2c1,,"kinase binding, competitor, MIB/MS competition, refers to: CKA1",Candida albicans cell lysate,1 µM,baseline: DMSO,log2 fold change,0.331
CCCCCN1C[C@H](O)[C@@H](O)[C@H](O)[C@@H]1CO,,refers to: GlcCer d18:1/18:0,"wild-type mouse, cerebral cortex","oral, food admix, 30 mg/kg/day, 14 days",baseline: untreated,maximum GlcCer level,34.7 fold
CC(C)NCC(O)c1ccc(O)c(O)c1 (stereo not shown),,,"ventricular cardiomyocytes, C57BL/6 mouse","dose not given, 0.04 s",,sarcomere length,1.72 µm
NC(=O)c1cnc2[nH]ccc2c1N[C@@H]1[C@@H]2CC3C[C@H]1C[C@@](O)(C3)C2,,"CD4+ memory T cells, flow cytometry","Japanese humans, peripheral blood",60 mg single dose,baseline: baseline,percent change,0.37%
C[C@H](Oc1ccc(Br)cc1-c1ccon1)C(=O)O,,muscle velocity recovery cycles,"human, tibialis anterior muscle","200 mg once daily, multiple doses, multiple ascending dose",baseline: placebo,CMAP amplitude,-0.073 mV
O=C(O)CNC(=O)Cc1ccccc1,,,"ventricular cardiomyocytes, C57BL/6 mouse","dose not given, 0.084 s",,sarcomere length,1.72 µm

# For quick reference, copied from above:
SMILES,target or system,test,system,setting,scale,endpoint,value
CC(C)NCC(O)c1ccc(O)c(O)c1 (stereo not shown),,,"ventricular cardiomyocytes, C57BL/6 mouse","dose not given, 0.04 s",,sarcomere length,1.72 µm
